Measurements gathered from unrelated publications.
Each line is one published result; not all experiments were run side by side. ± marks the error that the study gave.
P4HB: Protein disulfide-isomerase (P4HB, Homo sapiens, UniProt P07237)
Sequence of UniProt P07237 (whole entry, looked up): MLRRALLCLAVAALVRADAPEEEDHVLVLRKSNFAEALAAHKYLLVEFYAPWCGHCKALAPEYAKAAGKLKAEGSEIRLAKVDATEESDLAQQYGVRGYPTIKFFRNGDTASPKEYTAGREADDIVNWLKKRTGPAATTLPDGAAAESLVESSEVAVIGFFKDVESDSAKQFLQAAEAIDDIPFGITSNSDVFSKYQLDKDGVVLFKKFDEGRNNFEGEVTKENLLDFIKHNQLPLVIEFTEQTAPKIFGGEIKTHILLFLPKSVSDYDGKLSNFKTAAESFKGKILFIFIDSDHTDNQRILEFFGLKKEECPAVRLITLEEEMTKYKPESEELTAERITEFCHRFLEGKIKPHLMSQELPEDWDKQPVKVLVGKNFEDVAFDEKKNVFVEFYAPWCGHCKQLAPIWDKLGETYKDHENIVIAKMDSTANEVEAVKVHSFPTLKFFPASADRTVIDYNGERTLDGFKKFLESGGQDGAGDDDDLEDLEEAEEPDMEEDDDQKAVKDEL
HCRTR2: Orexin receptor type 2 (HCRTR2, Homo sapiens, UniProt O43614)
Sequence of UniProt O43614 (whole entry, looked up): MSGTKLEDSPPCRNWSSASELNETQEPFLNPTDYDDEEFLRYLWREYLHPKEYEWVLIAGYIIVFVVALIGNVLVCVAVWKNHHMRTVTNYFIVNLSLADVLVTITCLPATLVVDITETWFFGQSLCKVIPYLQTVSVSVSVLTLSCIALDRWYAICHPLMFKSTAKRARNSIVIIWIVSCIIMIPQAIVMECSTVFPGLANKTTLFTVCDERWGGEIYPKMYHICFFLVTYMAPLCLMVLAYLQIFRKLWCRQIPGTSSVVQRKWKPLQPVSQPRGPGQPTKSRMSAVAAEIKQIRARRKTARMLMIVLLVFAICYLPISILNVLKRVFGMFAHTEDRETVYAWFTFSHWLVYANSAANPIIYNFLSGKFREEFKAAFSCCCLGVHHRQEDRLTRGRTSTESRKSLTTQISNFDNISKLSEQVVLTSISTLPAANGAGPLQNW
PTGS2: Prostaglandin G/H synthase 2 (PTGS2, Homo sapiens, UniProt P35354)
Sequence of UniProt P35354 (whole entry, looked up): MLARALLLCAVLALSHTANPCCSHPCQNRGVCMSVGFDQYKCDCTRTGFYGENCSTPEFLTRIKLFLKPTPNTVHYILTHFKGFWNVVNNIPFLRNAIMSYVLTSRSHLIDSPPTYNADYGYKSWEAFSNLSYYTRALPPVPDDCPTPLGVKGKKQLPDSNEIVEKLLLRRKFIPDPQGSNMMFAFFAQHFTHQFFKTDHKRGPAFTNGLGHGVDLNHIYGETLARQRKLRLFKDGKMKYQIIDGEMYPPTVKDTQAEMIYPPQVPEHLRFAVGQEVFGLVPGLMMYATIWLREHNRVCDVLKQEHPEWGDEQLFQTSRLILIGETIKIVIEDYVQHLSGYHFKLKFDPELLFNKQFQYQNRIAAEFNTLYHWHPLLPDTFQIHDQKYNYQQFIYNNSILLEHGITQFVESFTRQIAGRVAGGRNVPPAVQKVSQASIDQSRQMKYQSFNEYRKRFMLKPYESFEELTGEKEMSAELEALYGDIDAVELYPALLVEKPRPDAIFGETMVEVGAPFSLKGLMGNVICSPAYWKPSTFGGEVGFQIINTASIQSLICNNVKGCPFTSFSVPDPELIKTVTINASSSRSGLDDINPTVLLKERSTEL
AR: Androgen receptor (AR, Homo sapiens, UniProt P10275)
Sequence of UniProt P10275 (whole entry, looked up): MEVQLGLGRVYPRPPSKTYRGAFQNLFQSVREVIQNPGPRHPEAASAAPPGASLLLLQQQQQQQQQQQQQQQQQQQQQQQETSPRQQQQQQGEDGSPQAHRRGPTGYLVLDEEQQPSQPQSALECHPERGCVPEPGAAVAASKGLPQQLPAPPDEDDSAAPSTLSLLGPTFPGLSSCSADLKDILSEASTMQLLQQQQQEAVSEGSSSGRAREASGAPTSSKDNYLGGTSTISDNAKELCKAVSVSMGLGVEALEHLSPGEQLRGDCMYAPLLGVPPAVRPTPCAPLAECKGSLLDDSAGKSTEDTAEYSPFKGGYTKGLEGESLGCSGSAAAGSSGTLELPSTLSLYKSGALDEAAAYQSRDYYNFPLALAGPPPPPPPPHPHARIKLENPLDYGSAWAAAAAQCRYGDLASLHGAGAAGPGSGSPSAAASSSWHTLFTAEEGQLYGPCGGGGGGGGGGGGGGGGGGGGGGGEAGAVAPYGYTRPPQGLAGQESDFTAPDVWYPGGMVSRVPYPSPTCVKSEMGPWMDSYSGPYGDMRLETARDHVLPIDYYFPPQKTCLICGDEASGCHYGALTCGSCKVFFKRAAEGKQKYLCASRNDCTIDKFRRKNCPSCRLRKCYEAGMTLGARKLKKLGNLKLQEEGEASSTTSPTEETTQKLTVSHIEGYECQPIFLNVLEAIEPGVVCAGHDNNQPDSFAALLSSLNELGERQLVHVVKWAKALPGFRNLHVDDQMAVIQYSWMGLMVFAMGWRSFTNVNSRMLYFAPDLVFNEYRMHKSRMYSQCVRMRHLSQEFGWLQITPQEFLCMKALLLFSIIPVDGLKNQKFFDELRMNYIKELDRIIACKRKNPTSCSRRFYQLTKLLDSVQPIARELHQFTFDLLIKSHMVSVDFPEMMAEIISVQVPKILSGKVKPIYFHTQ
CPL: CPL (Toxoplasma gondii, UniProt Q6DMN0)
histidine kinase ComD: histidine kinase ComD (Streptococcus pneumoniae serotype 4, UniProt A0A0H2US84)
Sequence of UniProt O15379 (whole entry, looked up): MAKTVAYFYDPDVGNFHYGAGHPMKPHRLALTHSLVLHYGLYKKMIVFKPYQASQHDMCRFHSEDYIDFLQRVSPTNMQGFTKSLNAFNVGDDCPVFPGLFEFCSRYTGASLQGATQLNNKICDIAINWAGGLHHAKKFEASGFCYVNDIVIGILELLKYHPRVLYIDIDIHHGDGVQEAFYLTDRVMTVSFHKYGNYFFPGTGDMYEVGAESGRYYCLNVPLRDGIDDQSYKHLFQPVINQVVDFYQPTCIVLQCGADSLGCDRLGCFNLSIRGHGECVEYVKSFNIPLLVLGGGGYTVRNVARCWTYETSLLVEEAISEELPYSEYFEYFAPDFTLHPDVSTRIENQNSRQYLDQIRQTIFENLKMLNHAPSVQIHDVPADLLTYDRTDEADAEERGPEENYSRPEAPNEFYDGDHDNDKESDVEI
Sequence of UniProt Q9UBN7 (whole entry, looked up): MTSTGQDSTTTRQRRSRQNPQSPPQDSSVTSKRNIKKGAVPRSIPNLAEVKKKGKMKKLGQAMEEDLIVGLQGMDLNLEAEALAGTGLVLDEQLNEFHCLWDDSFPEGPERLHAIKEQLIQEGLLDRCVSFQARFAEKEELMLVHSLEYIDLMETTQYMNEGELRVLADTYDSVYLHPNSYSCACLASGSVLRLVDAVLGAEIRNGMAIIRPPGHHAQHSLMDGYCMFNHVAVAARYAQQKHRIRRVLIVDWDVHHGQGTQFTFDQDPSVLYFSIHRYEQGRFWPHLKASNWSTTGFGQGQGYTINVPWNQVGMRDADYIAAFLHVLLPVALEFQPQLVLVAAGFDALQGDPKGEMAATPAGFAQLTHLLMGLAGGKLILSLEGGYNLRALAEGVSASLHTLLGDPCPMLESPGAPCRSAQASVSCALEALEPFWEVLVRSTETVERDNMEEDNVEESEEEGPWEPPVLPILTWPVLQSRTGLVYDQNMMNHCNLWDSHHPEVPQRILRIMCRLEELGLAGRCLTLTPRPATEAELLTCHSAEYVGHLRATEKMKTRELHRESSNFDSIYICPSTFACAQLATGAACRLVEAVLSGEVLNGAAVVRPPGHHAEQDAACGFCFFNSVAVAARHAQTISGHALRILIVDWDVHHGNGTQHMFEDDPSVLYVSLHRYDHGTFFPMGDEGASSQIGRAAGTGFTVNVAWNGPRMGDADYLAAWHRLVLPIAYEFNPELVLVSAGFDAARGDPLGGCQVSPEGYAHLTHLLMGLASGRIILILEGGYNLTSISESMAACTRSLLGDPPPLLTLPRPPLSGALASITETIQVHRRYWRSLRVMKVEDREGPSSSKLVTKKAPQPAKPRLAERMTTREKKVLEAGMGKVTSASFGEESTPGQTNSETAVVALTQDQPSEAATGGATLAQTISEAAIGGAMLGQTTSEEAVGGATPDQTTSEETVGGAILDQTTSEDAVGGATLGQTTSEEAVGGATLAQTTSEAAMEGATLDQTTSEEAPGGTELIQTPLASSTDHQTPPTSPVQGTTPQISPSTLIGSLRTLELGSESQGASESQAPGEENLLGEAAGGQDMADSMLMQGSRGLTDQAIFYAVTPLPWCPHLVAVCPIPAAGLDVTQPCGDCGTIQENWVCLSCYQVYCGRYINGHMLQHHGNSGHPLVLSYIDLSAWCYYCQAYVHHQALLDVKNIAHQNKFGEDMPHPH
Sequence of UniProt P32247 (whole entry, looked up): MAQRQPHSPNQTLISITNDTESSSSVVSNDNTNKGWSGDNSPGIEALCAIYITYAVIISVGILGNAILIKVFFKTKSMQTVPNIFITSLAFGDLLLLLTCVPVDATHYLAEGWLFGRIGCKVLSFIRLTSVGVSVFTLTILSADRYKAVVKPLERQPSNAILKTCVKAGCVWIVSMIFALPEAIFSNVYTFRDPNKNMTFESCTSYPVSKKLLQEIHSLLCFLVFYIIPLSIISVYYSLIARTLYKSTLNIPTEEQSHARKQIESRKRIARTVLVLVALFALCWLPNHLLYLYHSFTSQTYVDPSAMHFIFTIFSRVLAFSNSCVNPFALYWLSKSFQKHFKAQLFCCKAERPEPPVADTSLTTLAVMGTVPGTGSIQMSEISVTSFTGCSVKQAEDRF
Sequence of UniProt Q05941 (whole entry, looked up): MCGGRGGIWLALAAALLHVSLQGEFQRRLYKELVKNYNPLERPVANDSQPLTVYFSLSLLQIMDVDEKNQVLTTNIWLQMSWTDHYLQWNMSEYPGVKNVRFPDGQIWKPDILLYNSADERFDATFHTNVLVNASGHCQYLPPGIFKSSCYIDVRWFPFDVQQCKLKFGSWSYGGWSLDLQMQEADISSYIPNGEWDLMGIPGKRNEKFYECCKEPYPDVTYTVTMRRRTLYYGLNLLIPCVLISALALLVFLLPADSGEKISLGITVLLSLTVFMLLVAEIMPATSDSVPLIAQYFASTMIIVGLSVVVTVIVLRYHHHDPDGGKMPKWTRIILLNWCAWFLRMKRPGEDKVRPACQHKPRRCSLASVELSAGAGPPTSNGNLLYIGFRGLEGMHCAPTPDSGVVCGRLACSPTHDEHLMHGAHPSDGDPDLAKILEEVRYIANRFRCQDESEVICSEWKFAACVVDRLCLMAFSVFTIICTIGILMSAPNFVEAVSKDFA

Structure (SMILES)	target	assay	system	conditions	IC50
O=C(CCCCCCC(=O)Nc1ccccc1N=Nc1ccccc1)NO	Protein deacetylase HDAC6 (HDAC6, Homo sapiens, UniProt Q9UBN7)	enzyme activity, inhibitor		trans isomer	0.335 ± 0.105 µM
Nc1ncnc2c1ncn2[C@@H]1O[C@H](CSCCNC(=O)NCCc2ccccc2)[C@@H](O)[C@H]1O	Histone-lysine N-methyltransferase, H3 lysine-79 specific (DOT1L, Homo sapiens, UniProt Q8TEK3)	enzyme activity, inhibitor, radiometric			7 µM
COC(=O)C1CN1S(=O)(=O)c1ccc(N)cc1 (stereo not shown)	P4HB	enzyme activity, inhibitor, absorbance		pH 7.6	> 200 µM
C[C@@H]1CCN(c2nc3cc(Cl)ccc3o2)CCN1S(=O)(=O)c1ccccc1	HCRTR2	calcium signal, antagonist, fluorescence			1.09 µM
Cc1cc2c(C(=O)Cc3ccccc3)c(O)c(O)cc2c(O)c1-c1c(C)cc2c(C(=O)Cc3ccccc3)c(O)c(O)cc2c1O	Bcl-2-like protein 1, transmembrane domain deleted (BCL2L1, Homo sapiens, UniProt Q07817)	binding, fluorescence polarization		together with: FITC-Bak BH3 peptide	0.19 µM
C=CC1CN2CCC1CC2C(O)c1c(-c2ccc(N=Nc3ccccc3)cc2)cnc2ccc(OC)cc12 (stereo not shown)	Sodium channel protein type 5 subunit alpha (SCN5A, Homo sapiens, UniProt Q14524, V405A)	whole-cell patch clamp	HEK293T expressing mutant	pH 7.3, in darkness	> 100 µM
NCCCC[C@@H]1NC(=O)[C@H](Cc2c[nH]c3ccccc23)NC(=O)[C@H](CCC(N)=O)NC(=O)[C@H](CC(N)=O)NC(=O)[C@@H]2CCCN2C(=O)[C@@H](N)CSSC[C@@H](C(N)=O)NC(=O)[C@H](Cc2ccc(O)cc2)NC(=O)[C@H](CO)NC1=O	WD repeat-containing protein 5, WBM site (WDR5, Homo sapiens, UniProt P61964)	binding, inhibitor			> 100 µM
CSCC[C@H](NC(=O)[C@H](CC(C)C)NC(=O)[C@H](Cc1cnc[nH]1)NC(=O)CNC(=O)[C@@H](NC(=O)[C@H](C)NC(=O)[C@H](Cc1c[nH]c2ccccc12)NC(=O)[C@H](CCC(N)=O)NC(=O)[C@H](N)Cc1ccccc1)C(C)C)C(N)=O	Bombesin receptor subtype-3 (BRS3, Homo sapiens, UniProt P32247)	human GRPR activity, cell-based			> 3 µM
CC(C)P(=S)(NP(=[Se])(C(C)C)C(C)C)C(C)C	Alpha-amylase (Bacillus subtilis, UniProt P00691)	enzyme activity, inhibitor, absorbance		pH 6.9	376 µM
COc1cccc(/C=C/C(=O)C(c2ccccc2)c2ccccc2)c1OC	PTGS2	enzyme activity, inhibitor, ELISA			15.4 µM
CC(C)C[C@@H]1NC(=O)[C@H](CCCNC(=N)N)NC(=O)[C@H](CCCCN)NC(=O)[C@H](CC(=O)O)NC(=O)[C@H](C)NC(=O)[C@@H](CO)NC1=O	Disintegrin and metalloproteinase domain-containing protein 8 (Homo sapiens, UniProt P78325)	enzyme activity, inhibitor, fluorescence			> 5 µM
CC1(C(=O)O)CCCC2(C)C1CCC1(C)c3cocc3CCC12 (stereo not shown)	AR	reporter gene, antagonist, luciferase			> 30 µM
CC(C)(F)CCN(Cc1ccc(F)cc1)c1nc(C#N)nc(N2CCOCC2)n1	CPL	enzyme activity, inhibitor, Z-L-R-AMC hydrolysis fluorescence			0.017 µM
CN(CCO)c1ccc(/C=C/C(=O)c2ccco2)cc1	PTGS2	enzyme activity, inhibitor, ELISA			59.6 µM
NC1=NN=Cc2ccccc2[O][V](=[O])[O]1.c1cnc2c(c1)ccc1cccnc12	Tyrosine-protein phosphatase non-receptor type 12 (PTPN12, Homo sapiens, UniProt Q05209)	enzyme activity, inhibitor			4.28 µM
COC(=O)C1CN1S(=O)(=O)c1ccc(C(C)(C)C)cc1 (stereo not shown)	P4HB	enzyme activity, inhibitor, absorbance		pH 7.6	0.42 µM
OC[C@@H]1[C@@H](O)[C@H](O)[C@@H](O)[C@@H]2N[C@H]12	Lysosomal acid glucosylceramidase (GBA1, Homo sapiens, UniProt P04062, R534H)	enzyme activity, inhibitor		30 min preincubation, pH 5.2, 37 °C, together with: 4-MU-β-Glc	0.304 ± 0.005 µM
CC(C)C[C@H](NC(=O)OCc1cccc(Cl)c1)C(=O)N[C@H](C=O)C[C@H]1CCNC1=O	Genome polyprotein, 3C protease (Human enterovirus D68, UniProt Q68T42)	3C protease activity, inhibitor, FRET			0.12 ± 0.02 µM
CC(NC(=O)C=Cc1ccco1)C(=O)NC(Cc1ccccc1)C(N)=O (stereo not shown)	Mycosin-1 (Mycolicibacterium thermoresistibile, UniProt G7CDQ2)	enzyme activity, inhibitor			135 µM
Cc1cc(Nc2nc(C[C@@]3(C(=O)O)CCN(Cc4cccc(Cl)c4F)[C@H](C)C3)cc(C)c2F)n[nH]1	Aurora kinase A (AURKA, Homo sapiens, UniProt O14965)	enzyme activity, inhibitor			0.000327 µM

Structure (SMILES)	target	assay	system	conditions	IC50
COc1ccc(S(=O)(=O)N2CCN(c3nc4ccc(Cl)cc4o3)CC[C@H]2C)cc1	HCRTR2	calcium signal, antagonist, fluorescence			5.11 µM
CC(C)CCN(CCCc1ccccc1)c1nc(C#N)nc(N2CCOCC2)n1	CPL	enzyme activity, inhibitor, Z-L-R-AMC hydrolysis fluorescence			0.23 µM
CC[C@H](C)[C@H](NC(=O)[C@H](CCCNC(=N)N)NC(=O)[C@H](CCCNC(=N)N)NC(=O)[C@@H]1CCCN1C(=O)[C@@H]1CCCN1C(=O)[C@H](CCCNC(=N)N)NC(=O)[C@@H]1CCCN1C(=O)[C@H](CCCNC(=N)N)NC(=O)[C@@H]1CCCN1C(=O)[C@H](CC(C)C)NC(=O)[C@H](Cc1ccc(O)cc1)NC(=O)[C@@H]1CCCN1C(=O)[C@@H]1CCCN1C(=O)[C@H](CCCCN)NC(=O)[C@H](CC(=O)O)NC(=O)[C@@H](N)C(C)C)C(=O)N[C@@H](Cc1ccc(O)cc1)C(=O)N[C@@H](CC(N)=O)C(=O)N[C@@H](CCCNC(=N)N)C(=O)N1CCN(c2cc3c(cc2F)c(=O)c(C(N)=O)cn3C2CC2)CC1	dnaK (Escherichia coli, UniProt P0A6Y8)	ligand displacement, FP		pH 7.5	0.99 µM
O=C(CCCCCCC(=O)Nc1ccc(N=Nc2ccccc2)cc1)NO	Histone deacetylase 3 (HDAC3, Homo sapiens, UniProt O15379)	enzyme activity, inhibitor		cis isomer, irradiated	0.335 ± 0.103 µM
CCCCCCOc1ccc(Nc2ccccc2C(=O)O)cc1	AR	reporter gene, antagonist, MMTV-Luc reporter	MDA-kb2	20 h, together with: 0.2 nM DHT (EC50)	20.5 ± 18.7 µM
CC(C)C[C@H](NC(=O)[C@H](CCCCN)NC(=O)[C@H](CC(C)C)NC(=O)[C@]1(C)CCCC=CCCC[C@](C)(N)C(=O)N[C@@H](C)C(=O)N[C@@H](Cc2ccc(O)cc2)C(=O)N[C@@H](Cc2ccccc2)C(=O)N1)C(=O)N[C@@H](C)C(=O)NCC(=O)N[C@@H](CCCNC(=N)N)C(=O)N[C@@H](Cc1c[nH]c2ccccc12)C(N)=O	PC4 and SFRS1-interacting protein, with HIV integrase (Homo sapiens, UniProt O75475)	LEDGF/p75-integrase interaction, inhibitor			> 100 µM
CC[C@H](C)[C@H](NC(=O)[C@H](CC(N)=O)NC(=O)[C@H](CC(N)=O)NC(=O)[C@@H](N)CCCNC(N)=O)C(=O)N1C[C@@H](n2cc(-c3ccc(N)cc3)nn2)C[C@H]1C(=O)N[C@H](Cc1c[nH]c2ccccc12)C(=O)N[C@@H](CO)C(N)=O	Envelope glycoprotein gp160, gp120 (env, Human immunodeficiency virus type 1 group M subtype B, UniProt P35961)		HIV-1		> 100 µM
NCCCC[C@H](N)C(=O)N[C@@H](Cc1ccc(O)cc1)C(=O)N[C@@H](CC(N)=O)C(=O)N1CCC[C@H]1C(=O)N[C@H]1CSC(=O)[C@H](Cc2ccccc2)NC(=O)[C@H](Cc2ccc(O)cc2)NC(=O)[C@H](CC(N)=O)NC(=O)[C@H](CO)NC1=O	Accessory gene regulator protein C (Staphylococcus epidermidis, UniProt O86861)				0.00047 µM
CC[C@H](C)[C@H](NC(=O)[C@H](CCCNC(=N)N)NC(=O)[C@H](CO)NC(=O)[C@H](CC(C)C)NC(=O)[C@H](CCCNC(=N)N)NC(=O)[C@H](CCSC)NC(=O)[C@H](C)N)C(=O)N[C@H](C(=O)N[C@@H](CCCNC(=N)N)C(=O)N[C@@H](CC(=O)O)C(=O)N[C@@H](Cc1ccccc1)C(=O)N[C@@H](CC(C)C)C(=O)N[C@@H](CC(C)C)C(=O)N[C@@H](CCC(N)=O)C(=O)N[C@@H](CCCNC(=N)N)C(=O)N[C@@H](CCCCN)C(=O)N[C@@H](CCCCN)C(=O)O)[C@@H](C)CC	histidine kinase ComD		Streptococcus pneumoniae		> 1 µM
CC[C@H](C)[C@H](NC(=O)[C@H](CC(N)=O)NC(=O)[C@H](Cc1c[nH]cn1)NC(=O)[C@@H](NC(=O)[C@H](CCC(N)=O)NC(=O)[C@H](CCCNC(=N)N)NC(=O)[C@H](CCSC)NC(=O)[C@H](C)N)[C@@H](C)O)C(=O)N[C@@H](Cc1ccccc1)C(=O)N[C@@H](Cc1ccccc1)C(=O)N[C@@H](CC(N)=O)C(=O)N[C@@H](CC(C)C)C(=O)N[C@@H](Cc1ccccc1)C(=O)N[C@@H](CCCCN)C(=O)N[C@@H](CCCNC(=N)N)C(=O)N[C@@H](CCCNC(=N)N)C(=O)O	histidine kinase ComD	reporter gene, antagonist	Streptococcus pneumoniae, TIGR4 comX::lacZ	30 min, 37 °C, together with: CSP2 250 nM	> 10 µM
CN[C@@H]1[C@H](O)[C@H](NC)[C@H]2O[C@]3(O)[C@H](O[C@@H]2[C@H]1O)O[C@H](C)C[C@@]3(O)CNCc1ccc(Cl)cc1	Small ribosomal subunit protein uS5, 70S ribosome (rpsE, Mycolicibacterium smegmatis, UniProt A0QSG6)	translation, inhibitor, in vitro translation, luciferase	Mycobacterium smegmatis ribosomes		0.3 mg/L
Fc1ncc(C2CC3CCC2N3)cc1-c1ccncc1 (racemic)	Neuronal acetylcholine receptor subunit alpha-7 (Chrna7, Rattus norvegicus, UniProt Q05941)	ion current, two-electrode voltage clamp		oocytes	75 µM
Clc1ccc(C(c2ccc(Cl)cc2)C(Cl)Cl)cc1	ATP-dependent translocase ABCB1 (Abcb1a, Mus musculus, UniProt P21447, N83Q/N87Q/N90Q)	ATPase activity, inhibitor	purified recombinant protein	5 min, pH 7.5, together with: verapamil 100 µM	72.5 µM
N#Cc1nc(N2CCOCC2)nc(N(Cc2ccc(F)cc2)CC2CCNCC2)n1	CPL	enzyme activity, inhibitor, Z-L-R-AMC hydrolysis fluorescence			1.2 µM
CCCCC[C@@H]1OC(=O)[C@@H](C)N(C)C(=O)[C@H](CCCCC)OC(=O)[C@@H](C)N(C)C(=O)[C@H](CCCCC)OC(=O)[C@@H](C)N(C)C(=O)[C@H](CCCCC)OC(=O)[C@@H](C)N(C)C1=O	ryanodine receptor 2 (Sus scrofa, UniProt A0A5G2R1W3)	channel open probability, inhibitor, lipid bilayer single-channel		+40 mV, together with: 0.1 µM Ca2+, 2 mM ATP	~0.2 µM
O=C(O)c1ccccc1Nc1ccc(Oc2ccc(F)cc2)cc1	AR	reporter gene, antagonist, MMTV-Luc reporter	MDA-kb2	20 h, together with: 8 nM DHT (EC90)	> 100 µM
CCCCNC(P(=O)(O)O)P(=O)(O)O	Squalene synthase (Homo sapiens, UniProt P37268)	enzyme activity, inhibitor			0.41 µM
CCC(C)SSc1ncc[nH]1 (stereo not shown)	genome polyprotein, 3C protease (Enterovirus D68, UniProt A0A097BW19)	enzyme activity, inhibitor		no DTT	1.2 ± 0.2 µM
N#CC(C#N)C(c1ccc(Cl)cc1)c1c[nH]c2ccccc12 (stereo not shown)	Cocaine esterase (CES2, Homo sapiens, UniProt O00748)	enzyme activity, inhibitor	human liver microsomes	pH 7.4, 37 °C, together with: fluorescein diacetate	> 100 µM
O=C(Nc1ccccc1)c1ccccc1O	Histone deacetylase 9 (HDAC9, Homo sapiens, UniProt Q9UKV0)	enzyme activity, inhibitor, fluorescence			> 10 µM

Excerpt of the above:
Structure (SMILES)	target	assay	system	conditions	IC50
CC[C@H](C)[C@H](NC(=O)[C@H](CCCNC(=N)N)NC(=O)[C@H](CO)NC(=O)[C@H](CC(C)C)NC(=O)[C@H](CCCNC(=N)N)NC(=O)[C@H](CCSC)NC(=O)[C@H](C)N)C(=O)N[C@H](C(=O)N[C@@H](CCCNC(=N)N)C(=O)N[C@@H](CC(=O)O)C(=O)N[C@@H](Cc1ccccc1)C(=O)N[C@@H](CC(C)C)C(=O)N[C@@H](CC(C)C)C(=O)N[C@@H](CCC(N)=O)C(=O)N[C@@H](CCCNC(=N)N)C(=O)N[C@@H](CCCCN)C(=O)N[C@@H](CCCCN)C(=O)O)[C@@H](C)CC	histidine kinase ComD		Streptococcus pneumoniae		> 1 µM
CC[C@H](C)[C@H](NC(=O)[C@H](CC(N)=O)NC(=O)[C@H](Cc1c[nH]cn1)NC(=O)[C@@H](NC(=O)[C@H](CCC(N)=O)NC(=O)[C@H](CCCNC(=N)N)NC(=O)[C@H](CCSC)NC(=O)[C@H](C)N)[C@@H](C)O)C(=O)N[C@@H](Cc1ccccc1)C(=O)N[C@@H](Cc1ccccc1)C(=O)N[C@@H](CC(N)=O)C(=O)N[C@@H](CC(C)C)C(=O)N[C@@H](Cc1ccccc1)C(=O)N[C@@H](CCCCN)C(=O)N[C@@H](CCCNC(=N)N)C(=O)N[C@@H](CCCNC(=N)N)C(=O)O	histidine kinase ComD	reporter gene, antagonist	Streptococcus pneumoniae, TIGR4 comX::lacZ	30 min, 37 °C, together with: CSP2 250 nM	> 10 µM
CN[C@@H]1[C@H](O)[C@H](NC)[C@H]2O[C@]3(O)[C@H](O[C@@H]2[C@H]1O)O[C@H](C)C[C@@]3(O)CNCc1ccc(Cl)cc1	Small ribosomal subunit protein uS5, 70S ribosome (rpsE, Mycolicibacterium smegmatis, UniProt A0QSG6)	translation, inhibitor, in vitro translation, luciferase	Mycobacterium smegmatis ribosomes		0.3 mg/L
Fc1ncc(C2CC3CCC2N3)cc1-c1ccncc1 (racemic)	Neuronal acetylcholine receptor subunit alpha-7 (Chrna7, Rattus norvegicus, UniProt Q05941)	ion current, two-electrode voltage clamp		oocytes	75 µM
Clc1ccc(C(c2ccc(Cl)cc2)C(Cl)Cl)cc1	ATP-dependent translocase ABCB1 (Abcb1a, Mus musculus, UniProt P21447, N83Q/N87Q/N90Q)	ATPase activity, inhibitor	purified recombinant protein	5 min, pH 7.5, together with: verapamil 100 µM	72.5 µM
